Measurements pooled from the literature.
Lines come from different studies, so protocols differ. ± gives the spread as reported.

SMILES | test | test system | setting | quantity | value
N[C@@H]1c2ccccc2OC12CCN(c1cnc3c(N4CCCc5ncccc54)n[nH]c3n1)CC2 |  | advanced solid tumour patients | oral, 20 mg once daily | serious TEAE grade ≥3 | 0%
COc1cc2c(Oc3ccc4[nH]c(C)cc4c3F)ccnc2cc1OCC1(N)CC1 |  | paediatric recurrent refractory sarcoma | 8 mg | grade 1 or 2 intestinal obstruction | 0%
C[C@@H](NC(=O)N1C(=O)[C@H](Cc2ccnc(N)c2)[C@H]1C(=O)O)C1CCCCC1 |  | healthy adult Chinese volunteers | continuous intravenous infusion, 2.25 mg/kg/h, 5-day infusion, CTCAE 5.0 grading | incidence of drug-related AEs | 25%
CC(C)[C@@H]1NC(=O)CNC(=O)[C@H](CC(N)=O)NC(=O)[C@H](CCCNC(=N)N)NC(=O)[C@H](Cc2ccc(O)cc2)NC(=O)[C@H](C(C)C)NC(=O)[C@@H](NC(=O)[C@@H](NC(=O)[C@H](CC(N)=O)NC(=O)[C@H](Cc2c[nH]c3ccccc23)NC(=O)[C@H](C)NC(=O)[C@H](Cc2ccccc2)NC(=O)CN)C(C)C)CSSC[C@@H](C(=O)N[C@@H](Cc2cnc[nH]2)C(=O)N[C@@H](CCCNC(=N)N)C(=O)N[C@@H](CCCNC(=N)N)C(=O)N[C@@H](C)C(=O)N[C@@H](CC(N)=O)C(N)=O)NC(=O)[C@H](C(C)C)NC(=O)[C@H](CCCNC(=N)N)NC1=O |  | ICR mouse, blood | intramammary, 10 mg/kg, day 5, 3 d dosing | MCH | 13.5 ± 0.28 pg
O=C(Nc1ccccc1)C1CCN(C(=O)Oc2cccnc2)CC1 | adverse event reporting | healthy women | oral, 60 mg, 7 days | subjects with sleep disorder | 0%
CCOC(=O)COc1ncccc1Oc1cc(-n2c(=O)cc(C(F)(F)F)n(C)c2=O)c(F)cc1Cl |  | Crl:CD(SD) rats, female | dietary, 90 days | NOAEL | 300 ppm in diet
C[C@]1(CO)Cc2ncn(-c3ccc(C#N)c(Cl)c3)c2C(=O)O1 | refers to: involuntary muscle contractions | human | 10 mg single dose | subjects with drug-related TEAE | 0%
Nc1nc2cc(-c3ccc4ncc(C(=O)N5CCOCC5)n4c3)ccc2o1 | refers to: Nausea | advanced solid tumour patients | dose not given, all grades, all doses | patients with adverse event | 61%
Cn1ncc(-c2nc(N[C@H]3CC[C@H](N)CC3)ncc2Cl)c1CC1CC1 | HPLC-MS/MS | patients, plasma | oral, 5 mg, day 5 | AUC | 0.702 µg·h/mL
[O-][S+]1CCc2nc(N3CCC(c4ncc(Cl)cn4)CC3)nc(NC3(CO)CCC3)c21 (centres unmarked) | refers to: upper abdominal pain | healthy male humans | 36 mg single dose | adverse event incidence | 16.7%
C[C@H]1COCCN1c1nc(NCc2cccnc2C(F)(F)F)c2cccnc2n1 |  | male CD-1 mouse, femur bone marrow | oral, 1000 mg/kg twice, 48 h, group mean | PCE share | 47.3%
CC(C)(O)c1cc(Nc2cc(Oc3cn(C4CC4)nc3C3CCOCC3)ccn2)ccn1 | Anemia | advanced cancer patients, grade 4 glioma expansion | oral, 50 mg twice daily, all causality any grade | treatment-emergent adverse events | 0%
CO[C@H]1C[C@@H]2CC[C@@H](C)[C@@](O)(O2)C(=O)C(=O)N2CCCC[C@H]2C(=O)O[C@H]([C@H](C)C[C@@H]2CC[C@@H](OC(=O)NCCOCCOCCOCCOCCOCCOCCOCCOCCC(=O)N3CCc4cc(Cn5nc(-c6ccc7oc(N)nc7c6)c6c(N)ncnc65)ccc4C3)[C@H](OC)C2)C[C@@H](O)[C@H](C)/C=C(\C)[C@@H](O)[C@@H](OC)C(=O)[C@H](C)C[C@H](C)/C=C/C=C/C=C/1C |  | patients with advanced solid tumours | intravenous, 16 mg weekly, any grade | decreased appetite leading to dose reduction | 25%
CCN1CCN(Cc2ccc(Nc3ncc(F)c(-c4cc(F)c5nc6n(c5c4)[C@H](C)CCC6)n3)nc2)CC1 |  | advanced solid tumour patients | dose not given, Phase Ia monotherapy | Hypophosphatemia incidence, grade ≥3 | 0%

For quick reference, copied from above:
SMILES | test | test system | setting | quantity | value
[O-][S+]1CCc2nc(N3CCC(c4ncc(Cl)cn4)CC3)nc(NC3(CO)CCC3)c21 (centres unmarked) | refers to: upper abdominal pain | healthy male humans | 36 mg single dose | adverse event incidence | 16.7%
C[C@H]1COCCN1c1nc(NCc2cccnc2C(F)(F)F)c2cccnc2n1 |  | male CD-1 mouse, femur bone marrow | oral, 1000 mg/kg twice, 48 h, group mean | PCE share | 47.3%
